Measured values gathered from unrelated publications.
Every numbered part comes from another study and shows a few of its results, in no order. Substitutions count along the parent as printed.

Set 1 — target: CCNB3, cyclin fold, Cln2 fusion (human); method: yeast growth competition, sequencing; matrix: yeast; notes: weak parent motif; relative to: not given; direction: higher = stronger binding
Starting sequence: ORC1 docking peptide (human); PRARKRLELGNLG
| Change | normalised enrichment score |
| --- | --- |
| PRARKRLFLGNLG [E8F] | 0.331 |
| PRARKRLEHGNLG [L9H] | -0.102 |
| PRARKRVELGNLG [L7V] | -0.398 |
| PRARKRLELGVLG [N11V] | 0.464 |
| PRARKRLELGNEG [L12E] | 0.15 |
| PRASKRLELGNLG [R4S] | 0.0213 |
| PRRRKRLELGNLG [A3R] | -0.0552 |
| PRARKRLVLGNLG [E8V] | 0.721 |
| PRARKRLELGDLG [N11D] | 0.292 |
| PRARKRLEVGNLG [L9V] | 0.521 |
| PRARKRLSLGNLG [E8S] | 0.241 |
| PRARKRLELGNLA [G13A] | 0.103 |
| PRARKRLDLGNLG [E8D] | 0.73 |
| PRATKRLELGNLG [R4T] | 0.37 |
| PLARKRLELGNLG [R2L] | -0.177 |
| PRARKRLELGNAG [L12A] | 0.527 |

Set 2 — method: RNA Bind-n-Seq; form: RNA; matrix: in vitro; tested at: 100 nM; notes: RNA with constant flanks, ends assumed; relative to: input RNA pool; direction: higher = stronger binding
Target: RING finger protein unkempt homolog, zinc fingers 1-6, SBP tag (UNK, Homo sapiens, UniProt Q9C0B0, residues 30-357)
Chain of UniProt Q9C0B0 (30-357, looked up): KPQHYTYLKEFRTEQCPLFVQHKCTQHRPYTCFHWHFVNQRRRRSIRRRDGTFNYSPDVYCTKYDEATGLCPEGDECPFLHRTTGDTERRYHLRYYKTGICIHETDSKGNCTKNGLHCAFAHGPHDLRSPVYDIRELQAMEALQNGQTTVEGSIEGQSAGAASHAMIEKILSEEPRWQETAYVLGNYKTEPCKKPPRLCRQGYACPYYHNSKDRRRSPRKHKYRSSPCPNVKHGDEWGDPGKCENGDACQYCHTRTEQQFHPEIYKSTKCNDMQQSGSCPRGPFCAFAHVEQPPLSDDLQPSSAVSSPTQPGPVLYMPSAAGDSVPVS
| Oligonucleotide | bound/input enrichment [ratio] |
| --- | --- |
| GGGAGUUCUACAGUCCGACGAUCCAUUGUACCCUGCUGUAUAAUAAACAAUCUCCGACAUUUAUCAACUGUUGAUACAAAUGUCCGUCCCUAACCACUUUUUAUAUAUGUUUUAAAUUUUUGAAAUUCAAGUGUACCUGCCAUCAACAGAGGAUUGAGCAUCA | 0.795 |
| GGGAGUUCUACAGUCCGACGAUCGCUGUGCCGAGCCGGGCCCUGUUCUCCUCCGGAUGUUGCUUCUUGAUUUUUUUUUUUUUUCCGGGGUGGGUCAGGGUUGUGACACACCAGCCCAGGUGAGAGCUGCUGCGGGUCACCUCACAACAGAGGAUUGAGCAUCA | 0.443 |
| GGGAGUUCUACAGUCCGACGAUCCGUGCUUAUGCUCUUCUAUGAGAGAGAUGAAUUGGGGAGAAUUGUCUCCAUUUUACCGAUCCGUUUCUUUCUAAAUUAUGACCAAAAAUAUUUUGCUAUUUCUUUCUUUGUAUAUGGACACAACAGAGGAUUGAGCAUCA | 0.539 |

Set 3 — method: protein-binding microarray; form: double-stranded DNA, one strand shown; matrix: in vitro; tested at: 0.8 µM; notes: whole 60-bp probe, no competitor; direction: higher = stronger binding
Target: Centromere-binding protein 1, full length, N-terminal tag (CBF1, Saccharomyces cerevisiae, UniProt P17106, residues 1-351)
Chain of UniProt P17106 (whole entry, looked up): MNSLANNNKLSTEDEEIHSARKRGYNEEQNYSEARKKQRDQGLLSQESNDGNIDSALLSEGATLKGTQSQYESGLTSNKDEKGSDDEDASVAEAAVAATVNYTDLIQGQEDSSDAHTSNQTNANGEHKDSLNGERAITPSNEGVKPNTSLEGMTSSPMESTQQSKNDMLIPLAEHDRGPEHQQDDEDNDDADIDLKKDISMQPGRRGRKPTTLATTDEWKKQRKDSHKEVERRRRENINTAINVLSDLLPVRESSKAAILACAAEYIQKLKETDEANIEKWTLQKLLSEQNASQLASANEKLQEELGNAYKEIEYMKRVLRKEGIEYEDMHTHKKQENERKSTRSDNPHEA
| Oligonucleotide | fluorescence intensity [a.u.] |
| --- | --- |
| GAACGTTTGTTGGAGCACGTGGGAAATCCCCAATAGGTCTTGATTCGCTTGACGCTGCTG | 5140 |
| CTATCAAATGAATATCACGATTTTGGCTGTATTTTCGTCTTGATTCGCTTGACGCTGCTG | 579 |
| GAATTGCCCATTGAGCACATGATCAGTGAGTGTTAGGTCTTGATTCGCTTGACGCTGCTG | 3510 |
| CTAAAGAAACGAATTCACCTGATTGCAGCTGTATTCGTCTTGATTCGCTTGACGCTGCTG | 610 |
| GAACTGCACTTCTGGCACATGGTCTAGCCTTTCTAGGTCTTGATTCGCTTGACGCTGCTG | 847 |
| CTAAATACTGAAGTGCAGCTGACGATCCAGTCATTCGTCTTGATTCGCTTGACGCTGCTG | 557 |
| TGTACGAAGCTATCAATCGTGCCTATAGTAGTTAGGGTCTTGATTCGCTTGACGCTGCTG | 522 |
| CTAAAACAGTGGTCTGATGTGATAGGGAAGTAATTCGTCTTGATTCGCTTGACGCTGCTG | 589 |
| CTAAAGTAGTTGTGACATGTGGATGTAATAGCGTTCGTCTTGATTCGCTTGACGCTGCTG | 787 |
| CTACGCTGTTTTCCGCACGAGGTTTCTCCGGACTTCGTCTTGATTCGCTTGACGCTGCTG | 691 |
| CTATCAAACTACCACCACCACGCGGCAGGCCGATTCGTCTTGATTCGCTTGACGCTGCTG | 565 |
| CTAGACCGCTCGTGGAAGGTGACGATAATACGATTCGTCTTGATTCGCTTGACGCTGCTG | 555 |
| GAATGTAGATGTCGCCGCGTGATTTTATCGTTGTAGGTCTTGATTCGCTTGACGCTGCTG | 863 |
| CTACAAATGGATCAAGGTGATGCTTATGCATAATTCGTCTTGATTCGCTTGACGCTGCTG | 515 |
| CTAAATCGTGGTCGGAACGTGCAATATATGAGATTCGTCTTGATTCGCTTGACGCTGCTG | 617 |
| GAAAATAGTGATCTGCACGGGTCTTGAGTAGAATAGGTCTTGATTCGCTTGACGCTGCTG | 619 |
| GAATGTGTTGCACGTGACTAAACATTGTCAATTTAGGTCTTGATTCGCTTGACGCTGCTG | 24800 |
| CTATGCTATAACTCGGTGGTGATGACCTCAGTGTTCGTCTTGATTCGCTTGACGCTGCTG | 524 |
| GAAGCTTACATAGGTGGTGGCACTACCATAATATAGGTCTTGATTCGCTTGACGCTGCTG | 510 |

Other studies, line by line
| Molecule | target | test | system | setting | scale | endpoint | result |
| --- | --- | --- | --- | --- | --- | --- | --- |
| PhoQ, residues 284 288 289 292 302 303 SSTLLI | PhoP, residues 12 14 15 18 19 NQAHL (Escherichia coli, UniProt P23836) | Sort-seq, item: YFP reporter | E. coli | PhoQ-PhoP variant library, together with: 10 µM Mg2+ | relative to: high Mg2+ state, higher = stronger signaling | fold induction | 1.15 |
